Results gathered from unrelated publications.
Every numbered part comes from another study and shows a few of its results, in no order.

Study 1 — technique: protein-binding microarray; form: double-stranded DNA, one strand shown; medium: in vitro; concentration: 0.8 µM; setting: whole 60-bp probe, no competitor; reading: higher = stronger binding; shared flanks, not repeated: … GTCTTGATTCGCTTGACGCTGCTG
Target: Centromere-binding protein 1, full length, N-terminal tag (CBF1, Saccharomyces cerevisiae, UniProt P17106, residues 1-351)
Sequence of UniProt P17106 (whole entry, looked up): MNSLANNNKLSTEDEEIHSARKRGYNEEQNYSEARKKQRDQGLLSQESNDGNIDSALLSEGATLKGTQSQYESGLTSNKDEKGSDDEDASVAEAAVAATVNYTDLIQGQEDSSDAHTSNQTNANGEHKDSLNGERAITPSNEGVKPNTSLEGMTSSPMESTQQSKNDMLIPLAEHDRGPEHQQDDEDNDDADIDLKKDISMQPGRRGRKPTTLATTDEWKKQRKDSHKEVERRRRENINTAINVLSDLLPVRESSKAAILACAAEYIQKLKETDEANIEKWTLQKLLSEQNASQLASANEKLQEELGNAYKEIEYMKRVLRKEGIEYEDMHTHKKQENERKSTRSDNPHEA
With `GAAAAACCCTTTACGGGCGTGCATGATGTATCATAG` the fluorescence intensity was 529 a.u.
`GAAAGTCTTCTGACTCACCTGTTCTGCTTTACCTAG` has a fluorescence intensity of 601 a.u.
`GAAACGGTGCGTGTCAGCGTGGTCGGCGTACGTTAG` has a fluorescence intensity of 571 a.u.
With `TGTACGAAGCTATATCACACTGTTATAGTAGTTAGG` the fluorescence intensity was 504 a.u.
`GAAGTTGAATAAGGCCATGTGACACGGGTTTCTTAG` has a fluorescence intensity of 3520 a.u.
`CTAGGATGGTGTTCACTCGTGCTAGCAAACGCGTTC` gave a fluorescence intensity of 563 a.u.
`TGTACGAAGCTATGAAGCACCACTATAGTAGTTAGG` gave a fluorescence intensity of 515 a.u.
`GAAAGCGATGAGATGATCATTTCTTATAGGGATTAG` has a fluorescence intensity of 493 a.u.
For `GAAGTGGTTTTTGGTGGTGTAAGTAAAGGTCGTTAG`, the fluorescence intensity was 595 a.u.
With `CCTAACTACTATAGGCACGATAAATAGCTTCGTACA` the fluorescence intensity was 482 a.u.
For `CTAGAAATAAAAAATGATAACGTGTATATTATTTTC`, the fluorescence intensity was 865 a.u.
For `GAAAACTGCTCGGCATACCTCACGCTTATTGCATAG`, the fluorescence intensity was 528 a.u.
With `GAATAGTACGCCTTTCACATGGCCTGTCGATCCTAG` the fluorescence intensity was 584 a.u.

Study 2 — target: UBE2G1 UBC core domain (UniProt P62253); technique: yeast two-hybrid; medium: yeast; setting: mostly zero background; baseline: not given; reading: higher = stronger interaction
B1: SH3RF1 RING domain (UniProt Q7Z6J0); chain DESALLDLLECPVCLERLDASAKVLPCQHTFCKRCLLGIVGSRNELRCPECRTLVGSGVEEL
B2: RNF19A RING domain (UniProt Q9NV58); chain ISKQIGDFIECPLCLLRHSKDRFPDIMTCHHRSCVDCLRQYLRIEISESRVNISCPECTERFNPHDIR
B3: RNF133 RING domain (UniProt Q8WVZ7); chain DEEINPNGDSCVICFERYKPNDIVRILTCKHFFHKNCIDPWILPHGTCPICKCDILKVLGIQ
Construct (chain): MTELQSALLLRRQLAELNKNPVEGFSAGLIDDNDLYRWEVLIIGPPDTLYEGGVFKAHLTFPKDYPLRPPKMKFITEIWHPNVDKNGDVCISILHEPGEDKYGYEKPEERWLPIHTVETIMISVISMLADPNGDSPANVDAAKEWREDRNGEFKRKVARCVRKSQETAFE
Under “lacZ reporter activity”, `B1 (SH3RF1 RING domain)` is recorded as 0.
For `B2 (RNF19A RING domain)`, “lacZ reporter activity” read 0.
`FDGDVDPDLKCALCHKVLEDPLTTPCGHVFCAGCVLPWVVQEGSCPARCRGRLSAKELN (PDZRN3 RING domain (UniProt Q9UPQ7))` — result for “lacZ reporter activity”: 0.
`NLSELTPYILCSICKGYLIDATTITECLHTFCKSCIVRHFYYSNRCPKCNIVVHQTQPLY (PCGF6 RING domain (UniProt Q9BYE7))`: “lacZ reporter activity” 0.
`B3 (RNF133 RING domain)` — result for “lacZ reporter activity”: 0.
Under “lacZ reporter activity”, `GSRLQEINDVCAICYHEFTTSARITPCNHYFHALCLRKWLYIQDTCPMCHQKVYIEDDIK (RNF139 RING domain (UniProt Q8WU17))` is recorded as 0.

Study 3 — technique: protein-binding microarray; form: double-stranded DNA, one strand shown; medium: in vitro; concentration: 2200 nM top; setting: 60-bp whole probe; added: salmon DNA 0.4 mg/ml; baseline: random background probes; reading: higher = stronger binding; shared flanks, not repeated: GCCTAGCAC … GTCTTGATTCGCTTGACGCTGCTG
Target: Interferon regulatory factor 7, full length, phosphomimetic (IRF7, Homo sapiens, UniProt Q92985, residues 1-503, S471D/S472D/S475D/S476D/S477D/S483D/S484D/S487D)
Sequence of UniProt Q92985 (whole entry, unmodified, looked up): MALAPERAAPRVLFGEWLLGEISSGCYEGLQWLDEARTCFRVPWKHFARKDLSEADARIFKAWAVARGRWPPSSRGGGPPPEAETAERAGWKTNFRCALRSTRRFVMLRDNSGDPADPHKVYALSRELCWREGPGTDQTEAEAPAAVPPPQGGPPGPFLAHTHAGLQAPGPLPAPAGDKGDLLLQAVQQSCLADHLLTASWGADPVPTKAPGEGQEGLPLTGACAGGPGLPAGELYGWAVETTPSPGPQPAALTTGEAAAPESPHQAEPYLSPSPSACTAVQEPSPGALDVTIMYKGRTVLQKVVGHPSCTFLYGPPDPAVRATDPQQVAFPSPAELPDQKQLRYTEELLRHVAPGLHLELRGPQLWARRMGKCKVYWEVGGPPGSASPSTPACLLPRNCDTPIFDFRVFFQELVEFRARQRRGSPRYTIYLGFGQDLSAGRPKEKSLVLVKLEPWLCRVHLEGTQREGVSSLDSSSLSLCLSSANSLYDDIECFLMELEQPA
For `GACGGTATGGGTCTCGGGACGTGCTAG`, “fitted relative affinity” read -0.565 z-score.
For `AGTGCTATACCACTCTTGCTGTGCTAG`, “fitted relative affinity” read 1.05 z-score.
For `TTAGGTTTCGGTACTGGGTTAGTGCTA`, “fitted relative affinity” read 5.05 z-score.
`TTTTTTTTTTCCCTGAAAAAGTGCTAG` — result for “fitted relative affinity”: 2.16 z-score.
`TCATGTTTCTACTGTCTGACTGTGCTA` — result for “fitted relative affinity”: 2.01 z-score.
`TTAGCACTGGGTCTCGGTTAGTGCTAG` — result for “fitted relative affinity”: 0.114 z-score.
For `TTAGGTTTCCTCTTCCTTTAGTGCTAG`, “fitted relative affinity” read 2.57 z-score.
Under “fitted relative affinity”, `GGTCTTTCCACTTTCTTTTGGTGCTAG` is recorded as 4.61 z-score.
`GACGGTATCGTGTTTCGGGACGTGCTA`: “fitted relative affinity” 1.77 z-score.
Under “fitted relative affinity”, `TTAGGTTTCGGGTATCGGTCAGTGCTA` is recorded as 6.07 z-score.
`TTAGGTTTCCCTTTCCTTTAGTGCTAG`: “fitted relative affinity” 5.55 z-score.
`GACGAACAGAGTCTCGAGACGTGCTAG`: “fitted relative affinity” -0.0085 z-score.

Study 4 — technique: protein binding microarray; form: double-stranded DNA, one strand shown; medium: in vitro; concentration: not given; baseline: not given; reading: higher = stronger binding
Target: Histone acetyltransferase KAT6A, winged helix 2, GST fusion (KAT6A, Homo sapiens, UniProt Q92794, residues 85-181)
Setting: 8-mer, flanks averaged, mean of 2 arrays, mostly near background
Target sequence (chain): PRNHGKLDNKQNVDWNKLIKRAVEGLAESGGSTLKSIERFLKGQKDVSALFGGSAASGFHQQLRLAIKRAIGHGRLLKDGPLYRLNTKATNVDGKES
`AAAAGCTC` has an E-score of 0.0987.
`AACATGAG` has an E-score of -0.102.
For `AGCAAGTC`, the E-score was -0.133.
`ACCTTAAG` has an E-score of -0.181.
The E-score of `CACGCCGC` is reported as 0.197.
For `CCCGATAA`, the E-score was -0.0807.
For `GAGCAAAC`, the E-score was 0.101.
`GAGCTACC` gave an E-score of -0.0484.
`ACCTGGAC` has an E-score of -0.0904.
The E-score of `AAGCCTAT` is reported as -0.0812.
`CCATTGCG` gave an E-score of 0.0711.
`ACTACCTC` gave an E-score of 0.0405.

Study 5 — technique: RNA Bind-n-Seq; form: RNA; medium: in vitro; concentration: 100 nM; baseline: input RNA pool; reading: higher = stronger binding
Target: RING finger protein unkempt homolog, zinc fingers 1-6, SBP tag (UNK, Homo sapiens, UniProt Q9C0B0, residues 30-357)
Sequence of UniProt Q9C0B0 (30-357, looked up): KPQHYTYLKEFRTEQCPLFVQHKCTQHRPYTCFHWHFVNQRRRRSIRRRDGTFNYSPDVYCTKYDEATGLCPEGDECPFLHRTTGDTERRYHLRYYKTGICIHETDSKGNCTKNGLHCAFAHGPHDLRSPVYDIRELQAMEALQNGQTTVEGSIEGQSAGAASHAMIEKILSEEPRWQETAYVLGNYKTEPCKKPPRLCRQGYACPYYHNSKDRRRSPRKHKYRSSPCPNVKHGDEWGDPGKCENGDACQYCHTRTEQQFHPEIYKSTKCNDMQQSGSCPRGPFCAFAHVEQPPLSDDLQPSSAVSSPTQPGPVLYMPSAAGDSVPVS
Setting: RNA with constant flanks, vertebrate orthologous sites, ends assumed
Shared flanks, not repeated: GGGAGUUCUACAGUCCGACGAUC … CAACAGAGGAUUGAGCAUCA
`UACCUAACCCCAAAGCUGGACUUUUGUUUAAUAGUUGCGUCACCACCACUGCUUUAAUUAGCAAUAUUAAAGUAAGAGUAAAUAUUACAGUAAUACGUCUUGCUCGUUGUUUCACGAGCC` gave a bound/input enrichment of 0.611 ratio.
The bound/input enrichment of `AGCAACUCAAGGAUUGAGGACUGGUUUUACAAAUAUACCAAGUAGAUAUGGAACUAAUAAUAGAAUUGGACAACCAAGACCAUGAUAGACUCUAACUUAUUUUUAUAAGGAAUAUUGACU` is reported as 0.369 ratio.
`CACAUCAGGUGAUAUAUGGCCUGGCCUUUCUGCUUAUGAUAAUAGUCCCAGAUCACCCCAUAGUCCUUCACCUAUUGCUACACCACCUAGUCAGAGUUCAUCAUGCUCUGAUGCCCCCAU` gave a bound/input enrichment of 0.693 ratio.
`GAACAUAUGUAGAAAACAACUUUCACUGAACCCAUUGUCAAGUUUUCCCCUAGAAUUUUAUUUGGACUUCUUUUGUUUUAUACAAGCUUGCAGUGUUUGUCAUUAUUAGUCCACAAUUAA` has a bound/input enrichment of 0.493 ratio.
The bound/input enrichment of `UCUACUGACCACUCACUGUUAUGUCUGGAUAUCUGUAAACACUUUUCUUUUUGUUCUUAGUCUUUUUCUUGUAUAAUUGAUGUUCUCUUAAAAUCGUUAAUGUAUCACAGGGCUGAUGUU` is reported as 1.23 ratio.
The bound/input enrichment of `GGUUGAUGUUCUGAAAAACCACCUAGUGAAAGAAGGUCGGGUAGAUGAAGAAAUUGCACUUAGAAUUAUCAAUGAGGGUGCUGCCAUCCUUCGGAGAGAGAAAACAAUGAUAGAAGUAGA` is reported as 0.778 ratio.
